Assay results of several laboratories.
Compare with care: the assays were run in different laboratories. Numbers after ± are the reported error.

SMILES | system | setting | tissue uptake [%ID/g]
N=C(N)NCCC[C@H](NC(=O)[C@H](CCCCN)NC(=O)[C@H](CCC(N)=O)NC(=O)CCOCCOCCOCCNC(=O)CN1CCN(CC(=O)O)CCN(CC(=O)O)CCN(CC(=O)O)CC1)C(=O)N[C@@H](CCCCN)C(=O)N[C@@H](CCCNC(=N)N)C(=O)N[C@@H](CCCCN)C(=O)N[C@@H](CCCCN)C(=O)N[C@@H](CO)C(=O)N[C@@H](CCCNC(=N)N)C(=O)N[C@@H](Cc1ccc(O)cc1)C(=O)N[C@@H](CCCCN)C(=O)N[C@@H](CO)C(=O)O [copper-64 labelled] | C57BL/6 mice, B16-F10 tumour, kidney | intravenous, 60 min | 157 ± 8.63
CSCC[C@H](NC(=O)[C@H](CC(C)C)NC(=O)[C@H](Cc1c[nH]cn1)NC(=O)CNC(=O)[C@@H](NC(=O)[C@H](C)NC(=O)[C@H](Cc1c[nH]c2ccccc12)NC(=O)[C@H](CCC(N)=O)NC(=O)CNC(=O)[C@H](CO)NC(=O)CNC(=O)CCCCCCCNC(=O)CCC(=O)Nc1ccc(CNC23CNCCNCC(N)(CNCCNC2)CNCCNC3)cc1)C(C)C)C(N)=O [copper-64 labelled] | female SCID mice, PC-3 xenograft, pancreas | intravenous, 0.6 MBq, 24 h | 29.9 ± 1.6
CC(C)C[C@H](NC(=O)[C@H](Cc1ccc(O)cc1)NC(=O)[C@@H](CCCNC(=N)N)NC(=O)[C@@H](CO)NC(=O)[C@H](Cc1ccccc1)NC(=O)[C@H](CC1CCCCC1)NC(=O)[C@H](CC(=O)O)NC(=O)CCC(C(=O)O)N1CCCN2CCN(CCCN(CC(=O)O)CC2)CC1)C(=O)N[C@@H](Cc1c[nH]c2ccccc12)C(=O)N[C@@H](CO)C(=O)O (stereo partly drawn) [copper-64 labelled] | female NMRI nude mice, heart | 1 h p.i. | 1.1 ± 0.1
N=C(N)NCCC[C@@H]1NC(=O)[C@H](CCCCNC(=O)CC[C@H](NC(=O)CCOCCOCCOCCOCCNC(=O)CC[C@H](NC(=O)CN2CCN(CC(=O)O)CCN(CC(=O)O)CCN(CC(=O)O)CC2)C(=O)NCCOCCOCCOCCOCCC(=O)N[C@@H](CCC(=O)NCCCC[C@@H]2NC(=O)[C@@H](Cc3ccccc3)NC(=O)[C@H](CC(=O)O)NC(=O)CNC(=O)[C@H](CCCNC(=N)N)NC2=O)C(=O)NCCCC[C@@H]2NC(=O)[C@@H](Cc3ccccc3)NC(=O)[C@H](CC(=O)O)NC(=O)CNC(=O)[C@H](CCCNC(=N)N)NC2=O)C(=O)NCCCC[C@@H]2NC(=O)[C@@H](Cc3ccccc3)NC(=O)[C@H](CC(=O)O)NC(=O)CNC(=O)[C@H](CCCNC(=N)N)NC2=O)NC(=O)[C@@H](Cc2ccccc2)NC(=O)[C@H](CC(=O)O)NC(=O)CNC1=O [indium-111 labelled] | female athymic nude mice, intestine | intravenous, 3 µCi, 24 h, U-87 MG glioma xenograft | 4.04 ± 1.11
N=C(N)NCCC[C@@H]1NC(=O)[C@H](CCCCNC(=O)CCOCCOCCOCCOCCNC(=O)CC[C@H](NC(=O)CCOCCOCCOCCOCCNC(=O)[C@H](CCCCNC(=O)c2ccc(NN)nc2)NC(=O)c2ccc(NN)nc2)C(=O)NCCOCCOCCOCCOCCC(=O)NCCCC[C@@H]2NC(=O)[C@@H](Cc3ccccc3)NC(=O)[C@H](CC(=O)O)NC(=O)CNC(=O)[C@H](CCCNC(=N)N)NC2=O)NC(=O)[C@@H](Cc2ccccc2)NC(=O)[C@H](CC(=O)O)NC(=O)CNC1=O [technetium-99m labelled] | female athymic nude mice, kidneys | intravenous, 0.1 MBq, 1 h, U-87 MG glioma xenograft | 9.28 ± 1.14
N=C(N)NCCC[C@@H]1NC(=O)[C@H](CCCCNC(=O)CC[C@H](NC(=O)CCOCCOCCOCCOCCNC(=O)CN2CCN(CC(=O)O)CCN(CC(=O)O)CCN(CC(=O)O)CC2)C(=O)NCCCC[C@@H]2NC(=O)[C@@H](Cc3ccccc3)NC(=O)[C@H](CC(=O)O)NC(=O)CNC(=O)[C@H](CCCNC(=N)N)NC2=O)NC(=O)[C@@H](Cc2ccccc2)NC(=O)[C@H](CC(=O)O)NC(=O)CNC1=O [indium-111 labelled] | female athymic nude mice, kidney | intravenous, 3 µCi, 72 h, U-87 MG glioma xenograft | 1.44 ± 0.13
CSCC[C@H](NC(=O)[C@H](CC(C)C)NC(=O)[C@H](Cc1c[nH]cn1)NC(=O)CNC(=O)[C@@H](NC(=O)[C@H](C)NC(=O)[C@H](Cc1c[nH]c2ccccc12)NC(=O)[C@H](CCC(N)=O)NC(=O)CCCCCCCNC(=O)CCC(=O)Nc1ccc(CNC23CNCCNCC(N)(CNCCNC2)CNCCNC3)cc1)C(C)C)C(N)=O [copper-64 labelled] | female SCID mice, PC-3 xenograft, bone | intravenous, 0.6 MBq, 1 h | 1.74 ± 0.525
N=C(N)NCCC[C@@H]1NC(=O)[C@H](CCCCNC(=O)CCOCCOCCOCCOCCNC(=O)CN2CCN(CC(=O)O)CCN(CC(=O)O)CCN(CC(=O)O)CC2)NC(=O)[C@@H](Cc2ccccc2)NC(=O)[C@H](CC(=O)O)NC(=O)CNC1=O [indium-111 labelled] | female athymic nude mice, brain | intravenous, 3 µCi, 4 h, U-87 MG glioma xenograft | 0.04 ± 0.01
N=C(N)NCCC[C@@H]1NC(=O)[C@H](CCCCNC(=O)CCOCCOCCOCCOCCNC(=O)CC[C@H](NC(=O)[C@H](CCCCNC(=O)c2ccc(NN)nc2)NC(=O)c2ccc(NN)nc2)C(=O)NCCOCCOCCOCCOCCC(=O)NCCCC[C@@H]2NC(=O)[C@@H](Cc3ccccc3)NC(=O)[C@H](CC(=O)O)NC(=O)CNC(=O)[C@H](CCCNC(=N)N)NC2=O)NC(=O)[C@@H](Cc2ccccc2)NC(=O)[C@H](CC(=O)O)NC(=O)CNC1=O [technetium-99m labelled] | female athymic nude mice, brain | intravenous, 0.1 MBq, 1 h, U-87 MG glioma xenograft | 0.14 ± 0.03

Repeated from above:
SMILES | system | setting | tissue uptake [%ID/g]
N=C(N)NCCC[C@@H]1NC(=O)[C@H](CCCCNC(=O)CC[C@H](NC(=O)CCOCCOCCOCCOCCNC(=O)CN2CCN(CC(=O)O)CCN(CC(=O)O)CCN(CC(=O)O)CC2)C(=O)NCCCC[C@@H]2NC(=O)[C@@H](Cc3ccccc3)NC(=O)[C@H](CC(=O)O)NC(=O)CNC(=O)[C@H](CCCNC(=N)N)NC2=O)NC(=O)[C@@H](Cc2ccccc2)NC(=O)[C@H](CC(=O)O)NC(=O)CNC1=O [indium-111 labelled] | female athymic nude mice, kidney | intravenous, 3 µCi, 72 h, U-87 MG glioma xenograft | 1.44 ± 0.13
